Measurements pooled from the literature.
A part holds a random share of what one study measured.

Block 1 — technique: RNA Bind-n-Seq; molecule type: RNA; sample: in vitro; tested at: 20 nM; setting: 6-mer, flanks averaged, single round; together with: 150 mM LiCl; reference: input library; reading: higher = stronger binding; endpoint: 6-mer enrichment (R)
Target: TAR DNA-binding protein 43, full length, His tag (TARDBP, Homo sapiens, UniProt Q13148, residues 1-414)
UAUAGG: 0.984
UUCACC: 0.95
CACAGG: 0.882
UUUUGU: 1.55
AACUUA: 0.879

Block 2 — technique: RNA Bind-n-Seq; molecule type: RNA; sample: in vitro; tested at: 365 nM; reference: no-protein control; reading: higher = stronger binding; endpoint: RBNS enrichment (R)
Target: RNA binding protein fox-1 homolog 2, RRM domain, GST-SBP tag (RBFOX2, Homo sapiens, UniProt O43251-10, residues 100-194)
Setting: natural RNA segment, single round, ends assumed
Shared flanks, not repeated: GGGAGUUCUACAGUCCGACGAUC … UGGAAUUCUCGGGUGCCAA
CCUCCAACCCUUCUUGCCUACUCCUCACUGCCAGCUGGGACCUAGGCUCAGUCCUGUGUGGUGCCCAUGAUCCUUCUGGUGGGGGAAGAGUUUAAGUUAUAGGGCAUUUG: 0.489
CCUGCGGGGCCCUGAGCCUCCCCCUGUGCCAGCAGCCCCACUCCCUCAGGGUCCAGCCAUGCCCCACCCUGGACUGAAGUUCUGCAAAGUCCUCCGAGGACCGGAACACG: 0.506
GAGGAGAAGUGUAUACAUGUUUUAUUUUAAAUUGUACGAAAGGGGAAUUUAAAAAAUAUGUAACUGCUGUUUAUACAUUGGCUCCUUACUGCUUAUUAAUCUGUAUUGUA: 1.21
AACCUUGACUUCUGAUUCUUGGGGGGGGAAAAGGUCCCUGGAUGCAAGUACACACUUCCACGGAAUCAUACAUUGGUUCAUCUUCUGAGAGCGCACAAUAGCUACUGAAC: 0.513
UUUCAUAAUUGGAUUCAUCAAUCCCGUAGCUACCCAUAUUGCACUGAGCUUGCCAGUGGUGACUGCCAGGAACGUCCUAUGAUCCACUUUGUUGGUUGUUGUUGCAGAAG: 0.698
UCCAAGUCCAGAACCAUCUCUGUUAUAGAGUGUGCCAAAGCCUGAGCUAAGCAGUGUAUUUUAAUCGAAGAAGAAACCAAAAUCUGUUCUAAGAACUGGGGUUCUAUACC: 0.387
UGAUAGGCAGGACUGAAAAACCAAAGAGCACAUGCACUGAGCUAUCUUGAAGUCCGUUAUAUGCAGAAUGAAGUUUUGCCAAGUCUGCUGGCAUUCACACGCUUCCAUGG: 0.781

Block 3 — technique: protein-binding microarray; molecule type: double-stranded DNA, one strand shown; sample: in vitro; tested at: 2200 nM top; setting: 60-bp whole probe; together with: salmon DNA 0.4 mg/ml; reference: random background probes; reading: higher = stronger binding; endpoint: fitted relative affinity; shared flanks, not repeated: GCCTAGCAC … GTCTTGATTCGCTTGACGCTGCTG
Target: Interferon regulatory factor 7, full length, phosphomimetic (IRF7, Homo sapiens, UniProt Q92985, residues 1-503, S471D/S472D/S475D/S476D/S477D/S483D/S484D/S487D)
Chain of UniProt Q92985 (whole entry, unmodified, looked up): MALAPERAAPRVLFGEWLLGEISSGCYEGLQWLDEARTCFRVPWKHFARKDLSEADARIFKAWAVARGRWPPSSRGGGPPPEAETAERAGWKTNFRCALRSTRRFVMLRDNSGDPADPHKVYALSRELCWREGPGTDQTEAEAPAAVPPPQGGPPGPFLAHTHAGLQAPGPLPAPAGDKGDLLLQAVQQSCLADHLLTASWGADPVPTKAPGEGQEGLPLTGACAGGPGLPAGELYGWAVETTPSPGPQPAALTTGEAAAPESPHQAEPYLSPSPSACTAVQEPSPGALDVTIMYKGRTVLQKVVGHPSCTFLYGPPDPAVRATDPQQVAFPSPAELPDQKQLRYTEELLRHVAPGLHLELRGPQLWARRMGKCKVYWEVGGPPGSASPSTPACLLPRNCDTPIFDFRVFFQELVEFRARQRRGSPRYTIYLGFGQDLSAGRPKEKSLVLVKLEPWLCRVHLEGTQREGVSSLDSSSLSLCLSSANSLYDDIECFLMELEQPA
CTTGCTTTCCAATTCTCTTTGTGCTAG: 3.79 z-score
GACGGTATCGGGTATCGGGGCGTGCTA: -0.102 z-score
AAAACACTAATTTTCATTTTGTGCTAG: 3.13 z-score
CTTCTTTTGCTAATTTTTTTGTGCTAG: 1.85 z-score
GACGATCTCAGACTTGAGACGTGCTAG: -0.0539 z-score

Other studies, line by line
PhoQ, residues 284 288 289 292 302 303 SSTLLI — fold induction (PhoP, residues 12 14 15 18 19 IQFRS (Escherichia coli, UniProt P23836); Sort-seq, item: YFP reporter; E. coli; PhoQ-PhoP variant library, together with: 10 µM Mg2+; reference: high Mg2+ state, higher = stronger signaling): 5.51

A few entries again (block 3):
GACGATCTCAGACTTGAGACGTGCTAG: -0.0539 z-score
CTTGCTTTCCAATTCTCTTTGTGCTAG: 3.79 z-score
